Experimental data of several laboratories.
Numbered parts are unrelated; each lists some results of a single study.
UniProt P42681, sequence (whole entry, looked up): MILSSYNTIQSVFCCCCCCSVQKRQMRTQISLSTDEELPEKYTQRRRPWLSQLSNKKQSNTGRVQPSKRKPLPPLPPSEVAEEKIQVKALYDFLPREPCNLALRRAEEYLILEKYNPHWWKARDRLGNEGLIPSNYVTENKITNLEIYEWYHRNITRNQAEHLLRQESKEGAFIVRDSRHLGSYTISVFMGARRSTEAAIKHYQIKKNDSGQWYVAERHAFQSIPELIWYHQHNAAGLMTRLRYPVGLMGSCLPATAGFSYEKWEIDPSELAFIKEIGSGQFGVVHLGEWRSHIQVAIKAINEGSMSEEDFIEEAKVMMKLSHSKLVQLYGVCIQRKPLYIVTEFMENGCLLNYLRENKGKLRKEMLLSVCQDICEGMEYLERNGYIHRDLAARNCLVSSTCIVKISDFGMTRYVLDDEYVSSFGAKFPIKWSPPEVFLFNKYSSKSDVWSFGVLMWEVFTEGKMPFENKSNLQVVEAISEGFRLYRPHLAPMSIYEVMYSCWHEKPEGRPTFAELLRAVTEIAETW
UniProt O75676, sequence (whole entry, looked up): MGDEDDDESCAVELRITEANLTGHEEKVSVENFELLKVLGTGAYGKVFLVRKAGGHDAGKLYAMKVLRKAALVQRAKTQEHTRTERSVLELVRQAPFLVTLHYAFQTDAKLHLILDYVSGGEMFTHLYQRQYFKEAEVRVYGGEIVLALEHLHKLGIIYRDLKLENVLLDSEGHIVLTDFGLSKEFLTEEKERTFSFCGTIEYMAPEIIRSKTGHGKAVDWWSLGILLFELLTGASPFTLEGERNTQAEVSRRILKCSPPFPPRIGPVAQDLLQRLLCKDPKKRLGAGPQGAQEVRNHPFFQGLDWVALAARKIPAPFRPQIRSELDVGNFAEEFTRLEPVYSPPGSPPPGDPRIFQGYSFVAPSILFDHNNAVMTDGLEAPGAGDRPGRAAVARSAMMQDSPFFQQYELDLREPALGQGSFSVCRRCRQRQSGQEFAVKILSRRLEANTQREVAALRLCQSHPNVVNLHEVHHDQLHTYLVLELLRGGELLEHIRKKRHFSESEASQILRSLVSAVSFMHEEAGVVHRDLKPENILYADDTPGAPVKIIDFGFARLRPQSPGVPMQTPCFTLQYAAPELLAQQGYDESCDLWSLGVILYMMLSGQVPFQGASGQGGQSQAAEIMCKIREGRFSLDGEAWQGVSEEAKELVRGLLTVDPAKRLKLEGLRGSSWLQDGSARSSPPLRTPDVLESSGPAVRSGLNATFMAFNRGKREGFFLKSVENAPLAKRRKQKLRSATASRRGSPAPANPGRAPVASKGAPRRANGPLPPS
UniProt Q9BYP7, sequence (whole entry, looked up): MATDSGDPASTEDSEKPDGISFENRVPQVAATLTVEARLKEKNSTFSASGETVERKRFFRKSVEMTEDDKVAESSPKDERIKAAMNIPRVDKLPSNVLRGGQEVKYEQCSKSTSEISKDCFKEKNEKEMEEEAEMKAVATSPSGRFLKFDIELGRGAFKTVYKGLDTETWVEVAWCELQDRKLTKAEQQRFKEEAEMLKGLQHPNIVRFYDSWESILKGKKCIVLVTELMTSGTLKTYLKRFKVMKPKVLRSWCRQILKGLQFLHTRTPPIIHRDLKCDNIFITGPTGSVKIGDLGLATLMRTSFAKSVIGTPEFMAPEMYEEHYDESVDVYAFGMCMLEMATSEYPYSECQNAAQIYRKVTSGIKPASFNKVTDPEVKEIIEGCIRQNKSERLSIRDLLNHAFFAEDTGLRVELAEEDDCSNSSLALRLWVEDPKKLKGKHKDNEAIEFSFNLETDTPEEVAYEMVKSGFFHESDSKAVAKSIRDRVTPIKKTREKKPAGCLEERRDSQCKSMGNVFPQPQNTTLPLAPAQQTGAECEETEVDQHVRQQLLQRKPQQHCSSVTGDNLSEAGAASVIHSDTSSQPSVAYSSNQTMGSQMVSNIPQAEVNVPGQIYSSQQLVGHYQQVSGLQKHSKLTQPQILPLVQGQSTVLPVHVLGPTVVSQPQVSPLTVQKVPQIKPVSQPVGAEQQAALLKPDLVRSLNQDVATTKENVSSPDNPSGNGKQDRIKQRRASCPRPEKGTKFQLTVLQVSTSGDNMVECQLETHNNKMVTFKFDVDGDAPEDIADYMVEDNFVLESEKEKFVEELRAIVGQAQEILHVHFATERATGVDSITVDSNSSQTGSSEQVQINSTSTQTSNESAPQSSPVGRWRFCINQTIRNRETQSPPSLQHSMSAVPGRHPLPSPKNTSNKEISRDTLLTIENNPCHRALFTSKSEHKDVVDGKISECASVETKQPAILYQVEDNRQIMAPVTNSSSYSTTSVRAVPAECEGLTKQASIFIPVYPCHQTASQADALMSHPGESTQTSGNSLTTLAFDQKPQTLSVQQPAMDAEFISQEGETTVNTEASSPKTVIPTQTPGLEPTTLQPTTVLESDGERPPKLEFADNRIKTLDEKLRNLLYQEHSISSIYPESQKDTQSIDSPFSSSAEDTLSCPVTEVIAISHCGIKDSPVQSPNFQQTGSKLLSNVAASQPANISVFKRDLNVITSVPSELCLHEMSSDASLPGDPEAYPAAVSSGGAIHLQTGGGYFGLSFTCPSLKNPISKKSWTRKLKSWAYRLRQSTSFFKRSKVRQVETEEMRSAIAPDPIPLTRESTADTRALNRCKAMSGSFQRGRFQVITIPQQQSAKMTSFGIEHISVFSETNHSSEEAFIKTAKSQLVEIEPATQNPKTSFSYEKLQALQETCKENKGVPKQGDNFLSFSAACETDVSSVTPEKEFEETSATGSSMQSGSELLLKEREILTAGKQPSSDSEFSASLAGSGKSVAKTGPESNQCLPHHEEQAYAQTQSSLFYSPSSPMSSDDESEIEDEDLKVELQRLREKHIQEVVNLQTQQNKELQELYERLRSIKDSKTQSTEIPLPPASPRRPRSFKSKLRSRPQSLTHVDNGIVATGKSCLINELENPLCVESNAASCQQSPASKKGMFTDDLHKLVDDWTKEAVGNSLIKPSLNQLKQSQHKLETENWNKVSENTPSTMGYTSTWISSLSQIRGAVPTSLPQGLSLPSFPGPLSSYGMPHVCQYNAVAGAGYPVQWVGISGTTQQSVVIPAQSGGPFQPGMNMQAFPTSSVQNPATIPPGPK
UniProt P08631, sequence (whole entry, looked up): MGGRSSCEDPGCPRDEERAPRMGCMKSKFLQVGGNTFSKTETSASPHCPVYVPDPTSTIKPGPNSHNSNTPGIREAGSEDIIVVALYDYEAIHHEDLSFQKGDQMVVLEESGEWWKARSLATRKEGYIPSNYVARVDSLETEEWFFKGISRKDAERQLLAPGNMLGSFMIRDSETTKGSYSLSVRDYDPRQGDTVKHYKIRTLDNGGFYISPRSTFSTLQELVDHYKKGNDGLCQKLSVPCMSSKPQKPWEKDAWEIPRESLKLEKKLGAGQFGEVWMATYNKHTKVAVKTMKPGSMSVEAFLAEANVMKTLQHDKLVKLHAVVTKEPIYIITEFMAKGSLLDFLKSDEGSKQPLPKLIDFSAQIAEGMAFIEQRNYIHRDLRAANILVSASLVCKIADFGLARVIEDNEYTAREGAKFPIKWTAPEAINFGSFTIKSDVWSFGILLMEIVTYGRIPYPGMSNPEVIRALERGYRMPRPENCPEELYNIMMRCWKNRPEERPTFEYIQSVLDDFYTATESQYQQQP
UniProt Q13237, sequence (whole entry, looked up): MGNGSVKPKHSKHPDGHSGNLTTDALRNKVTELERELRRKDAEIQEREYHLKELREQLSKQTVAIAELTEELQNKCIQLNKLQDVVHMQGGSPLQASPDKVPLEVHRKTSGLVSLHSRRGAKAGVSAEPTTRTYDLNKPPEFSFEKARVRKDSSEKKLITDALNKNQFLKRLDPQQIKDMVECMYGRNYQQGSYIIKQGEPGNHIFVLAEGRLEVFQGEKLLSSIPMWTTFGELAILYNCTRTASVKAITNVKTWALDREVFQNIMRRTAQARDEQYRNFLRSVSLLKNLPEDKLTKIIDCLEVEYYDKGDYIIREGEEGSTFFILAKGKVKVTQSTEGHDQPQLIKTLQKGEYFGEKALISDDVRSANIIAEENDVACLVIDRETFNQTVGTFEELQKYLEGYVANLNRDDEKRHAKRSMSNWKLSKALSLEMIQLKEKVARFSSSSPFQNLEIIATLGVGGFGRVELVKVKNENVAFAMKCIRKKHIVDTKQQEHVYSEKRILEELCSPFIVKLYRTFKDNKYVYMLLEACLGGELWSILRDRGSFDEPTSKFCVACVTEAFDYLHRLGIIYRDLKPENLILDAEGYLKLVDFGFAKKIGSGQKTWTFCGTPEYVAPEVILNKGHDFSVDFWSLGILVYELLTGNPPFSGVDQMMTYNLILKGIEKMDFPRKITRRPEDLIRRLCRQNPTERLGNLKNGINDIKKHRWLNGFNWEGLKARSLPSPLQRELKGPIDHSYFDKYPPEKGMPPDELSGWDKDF

Block 1
Host: mouse
Matrix: microsomes or S9
Tested at: 2 µM
Time: 0.5 h
SMILES	remaining compound
COc1ccc(-c2noc(CC(=O)NCc3ccccc3)c2-c2ccc(OC)cc2)cc1	0.652%
CCCn1c(=O)c2sccc2n2c(CCC(=O)Nc3ccc(CC)cc3)nnc12	0.103%
O=C(N[C@H](c1ccccc1)[C@@H](O)c1ccccc1)c1ccc(F)cc1	76.6%
CCN(CCCN(C)C)S(=O)(=O)c1ccc(S(=O)(=O)CC)cc1	89.4%
Cc1nc(NC(C)Cc2ccccc2)c(C#N)c2c1COC(C)(C)C2 (stereo not shown)	3.25%
Cc1nn(-c2ccc(F)c(Cl)c2)c(=O)cc1-c1cccc(N2CCCC2=O)c1	35.7%
Cc1ccc(S(=O)(=O)N2c3c(c4ccc(Br)cc4n3C)CC=CC2c2ccccc2)cc1 (stereo not shown)	62.8%

Block 2
Structure (SMILES): O=c1cc(N2CCOCC2)oc2c1ccc1ccccc12
Read-out: enzyme activity
Action: inhibitor
Tested at: 0.5 µM
Relative to: control
target	remaining activity
TXK (Homo sapiens, UniProt P42681)	98.9%
NEK3 (Homo sapiens, UniProt P51956)	111%
PRKG2 (Homo sapiens, UniProt Q13237)	102%
MET (Homo sapiens, UniProt P08581)	161%
PAK3 (Homo sapiens, UniProt O75914)	102%
RPS6KA4 (Homo sapiens, UniProt O75676)	99.4%
MINK1 (Homo sapiens, UniProt Q8N4C8)	96%
MARK2 (Homo sapiens, UniProt Q7KZI7)	101%
PLK3 (Homo sapiens, UniProt Q9H4B4)	64%
CAMK4 (Homo sapiens, UniProt Q16566)	94%
CLK3 (Homo sapiens, UniProt P49761)	81.1%
MARK4 (Homo sapiens, UniProt Q96L34)	102%
KDR (Homo sapiens, UniProt P35968)	86.8%

Block 3
Target: Calcium/calmodulin-dependent protein kinase type II subunit alpha (CAMK2A, Homo sapiens, UniProt Q9UQM7)
UniProt Q9UQM7, sequence (whole entry, looked up): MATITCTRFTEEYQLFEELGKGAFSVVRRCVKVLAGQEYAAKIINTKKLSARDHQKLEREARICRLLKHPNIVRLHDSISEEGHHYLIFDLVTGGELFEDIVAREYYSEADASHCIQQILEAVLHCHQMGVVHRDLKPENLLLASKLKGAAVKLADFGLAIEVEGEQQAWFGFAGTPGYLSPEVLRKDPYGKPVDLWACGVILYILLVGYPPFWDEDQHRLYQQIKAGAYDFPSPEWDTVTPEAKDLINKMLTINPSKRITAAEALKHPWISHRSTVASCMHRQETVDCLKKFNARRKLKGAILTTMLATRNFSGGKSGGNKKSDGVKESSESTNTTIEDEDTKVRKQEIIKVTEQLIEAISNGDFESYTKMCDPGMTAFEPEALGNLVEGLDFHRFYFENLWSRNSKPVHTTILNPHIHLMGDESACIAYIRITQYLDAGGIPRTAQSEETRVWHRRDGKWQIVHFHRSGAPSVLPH
Read-out: enzyme activity
Action: inhibitor
Tested at: 10 µM
SMILES	inhibition [%]
CC(=O)S[C@@H]1CC2=CC(=O)CC[C@]2(C)[C@H]2CC[C@@]3(C)[C@@H](CC[C@@]34CCC(=O)O4)[C@H]12	-6
CCC(=O)Oc1ccc2c(c1)CC[C@@H]1[C@@H]2CC[C@]2(C)[C@@H](OC(=O)CC)CC[C@@H]12	4
N[C@@H](CO)C(=O)O	-10
C=C1CCOC1=O	3
Nc1nc(N)nc(-c2cc(Cl)ccc2Cl)n1	4
COC(=O)c1ccccc1C(=O)O	8

Block 4
Compound: O=C1CCc2cc(Nc3cc(OC4CCOCC4)c([N+](=O)[O-])cc3Cl)ccc2N1
Tested at: 1 µM
target	read-out	method	remaining binding [%]
CDK11A (Homo sapiens, UniProt Q9UQ88)	cell-free assay	competition with immobilised ligand	100
ERN1 (Homo sapiens, UniProt O75460)	cell-free assay	competition with immobilised ligand	99
HCK (Homo sapiens, UniProt P08631)	cell-free assay	competition with immobilised ligand	100
DYRK1B (Homo sapiens, UniProt Q9Y463)	cell-free assay	competition with immobilised ligand	74
PIK3CA (Homo sapiens, UniProt P42336, Q546K)	cell-free assay	competition with immobilised ligand	70
AAK1 (Homo sapiens, UniProt Q2M2I8)	binding	–	100
STK36 (Homo sapiens, UniProt Q9NRP7)	cell-free assay	competition with immobilised ligand	96
WNK3 (Homo sapiens, UniProt Q9BYP7)	cell-free assay	competition with immobilised ligand	87

Repeated from above (block 2):
target	remaining activity
MARK4 (Homo sapiens, UniProt Q96L34)	102%
PRKG2 (Homo sapiens, UniProt Q13237)	102%
MINK1 (Homo sapiens, UniProt Q8N4C8)	96%
